Published values gathered from unrelated publications.
Lines come from different studies, so protocols differ. Several values in a cell are separate wells, animals, samples, runs or records.
Target: 5-hydroxytryptamine receptor 2A (HTR2A, Homo sapiens, UniProt P28223)

With `CO[C@@H](C)c1c(NC(=O)Nc2cnc(-n3nccn3)c(C(F)(F)F)c2)cnc2sc(C)nc12` the inhibition was -6.2% (ligand displacement, radioligand; 10 µM).
For `O=C1c2ccccc2CCCN1CCCCN1CCN(c2cccc(Cl)c2Cl)CC1`, the inhibition was 101% (radioligand binding; concentration not given, together with: [3H]ketanserin).
With `C/C(=N\OCCCN1CCCCC1)c1ccc(C(F)(F)F)cc1` the activation was 3.06% (agonist, IP-One; 10 µM).
`Cc1cc(Nc2nc(C[C@@]3(C(=O)O)CCN(Cc4cccc(Cl)c4F)[C@H](C)C3)cc(C)c2F)[nH]n1` gave an activation of 0.3% (agonist; 10 µM).
`Cc1sc2c(c1C)C(c1ccc(Cl)cc1)=NC(CC(=O)OC(C)(C)C)c1nnc(C)n1-2` (stereo not drawn) has a remaining binding of 76.3% (ligand displacement, radioligand; 1 µM).
The inhibition of `CCN(CC)CCOc1ccc(-c2nnn(Cc3ccc(OC)cc3)c2N)cc1` is reported as 13.1% (radioligand binding; HEK293; 10 µM, safety profiling).
For `CCOC(=O)[C@](CC)(CCCSCCOCCOCCNC(=O)c1ccc(-c2c3ccc(=N)c(S(=O)(=O)O)c-3oc3c(S(=O)(=O)O)c(N)ccc23)c(C(=O)O)c1)NC(=O)c1ccc(C2CC2)c(Cc2ccc(F)cc2)n1`, the inhibition was 5% (ligand displacement, radioligand; 10 µM).
`N[C@H](C(=O)N1CCCC1)C1CCN(c2nccc3c(-c4ncc(Cl)cc4Cl)cccc23)CC1` gave a response of 0% (functional response, agonist; 10 µM).
`C[C@H](CCC(=O)O)[C@H]1CC[C@H]2[C@@H]3[C@H](OS(=O)(=O)O)C[C@@H]4C[C@H](O)CC[C@]4(C)[C@H]3C[C@H](O)[C@]12C` gave an inhibition of -20% (beta-arrestin recruitment, antagonist, PathHunter enzyme fragment complementation; PathHunter GPCR cell line; 100 µM, together with: EC80 agonist).
`CS(C)(=O)=Nc1ccc(-c2ccc(-c3nc4cc(O[C@@H]5CO[C@H]6[C@@H]5OC[C@H]6O)[nH]c4cc3F)cc2)cc1` gave an inhibition of -1% (calcium signal, antagonist; 10 µM).
`COc1c(O)c(Cl)c2c3c1-c1cc4c(cc1CC3N(C)CC2)OCO4` (racemic) gave an apparent Kb of 130 nM (calcium flux, antagonist, FLIPR; HEK293; together with: serotonin).
The activity of `Cc1cc(-c2ccc3ccccc3c2)nnc1NCCN1CCN(C)CC1` is reported as 2% (antagonist; 10000 nM; reference: control).
With `COc1ccc(F)cc1S(=O)(=O)Nc1cnc2c(c1)C(=O)NCCO2` the inhibition was -1% (ligand displacement, radioligand; 10 µM).
`COc1ccccc1N1CCN(CCCCN2CCCc3ccccc3C2=O)CC1` gave an inhibition of 93.5% (radioligand binding; concentration not given, together with: [3H]ketanserin).
The specific binding of `O=C(O)c1ccc(-c2nc(-c3ccccc3Cl)c3sccn23)cc1` is reported as 121% and 130% (radioligand binding, safety screen panel; 10 µM; reference: control).
The inhibition of `COc1ncc2nc(C)n(Cc3ncc(S(N)(=O)=O)cc3F)c2c1-c1ccccc1` is reported as -22.3% (cells; 10 µM).
With `C[C@H](NCc1ccc(-c2ccc(C(F)(F)F)cc2)cc1)C(N)=O` the inhibition was -3% (radioligand binding, SafetyScreen panel; 1 µM, species human, together with: 0.50 nM [3H]Ketanserin).
For `CCc1nnc(-c2c(OC)cc(-c3cnc4cc(-c5cnn(C)c5)ccn34)cc2OC)o1`, the remaining binding was 113% (agonist radioligand, radioligand binding; 10 µM, SafetyScreen44 5-HT2A mean; lower = stronger displacement).

For quick reference, copied from above:
`COc1ccccc1N1CCN(CCCCN2CCCc3ccccc3C2=O)CC1` gave an inhibition of 93.5% (radioligand binding; concentration not given, together with: [3H]ketanserin).
